Assay results of several laboratories.
Organism: Klebsiella pneumoniae

`COC(=O)[C@H]1[C@H]2C[C@@H]3c4[nH]c5cc(OC)ccc5c4CCN3C[C@H]2C[C@@H](OC(=O)c2cc(OC)c(OC)c(OC)c2)[C@@H]1OC` gave an MIC of over 128 µM (ATCC BAA-2146).
`Cc1cc(-c2cn[nH]c2-c2cccc(OCc3cccc(C#N)c3)c2)cc(C)n1` has an MIC of 1 mg/L (broth microdilution; ATCC 27736).
For `O=C(N[C@H](CO)[C@H](O)c1ccc([N+](=O)[O-])cc1)C(Cl)Cl`, the MIC was 32 mg/L (broth microdilution; NCTC 13438; 24 h, 5% CO2).
`C[C@H]1COc2c(N3CCN(C)CC3)c(F)cc3c(=O)c(C(=O)O)cn1c23` has an MIC of under 0.5 mg/L (broth microdilution; ATCC 43816 acrAB knockout).
For `CO/N=C(\C(=O)N[C@@H]1C(=O)N2C(C(=O)O)=C(COC(C)=O)CS[C@H]12)c1csc(N)n1`, the MIC was under 0.5 mg/L (ATCC 700603, Mueller Hinton broth; 37 °C).
The MIC of `CSc1ccc(CNc2ccc(C(=O)O)cc2)cc1` is reported as 256 mg/L (broth microdilution).
For `C[C@H]1[C@H](NC(=O)/C(=N\OC(C)(C)C(=O)O)c2csc(N)n2)C(=O)N1S(=O)(=O)O`, the MIC was 4 mg/L (agar dilution; 16-14 ESBL).
With `O=C(O)c1cn(C2CC2)c2cc(N3CCNCC3)c(F)cc2c1=O` the MIC was over 512 mg/L (DOU CTX-M-15, Mueller Hinton broth; overnight, 37 °C).
`O=C(Cc1ccccc1)N[C@@H]1C(=O)N2C(C(=O)O)=C(CSc3cccc4cccnc34)CS[C@H]12` has an MIC of over 128 mg/L (N11-2218).
With `Cc1c(CN(C)C(=O)/C=C/c2cnc3c(c2)CCC(=O)N3)oc2ccccc12` the MIC was 16 mg/L (broth microdilution; AR-0034).
With `c1ccc2[nH]c(CNCC34CC5CC(CC(C5)C3)C4)nc2c1` the MIC was over 128 mg/L (ATCC 700603).
The MIC of `CO/N=C(\C(=O)N[C@@H]1C(=O)N2C(C(=O)O)=C(COC(C)=O)CS[C@H]12)c1csc(N)n1` is reported as 100 µM (broth microdilution; clinical isolate, Mueller-Hinton broth; 24 h, 37 °C).
`C[C@@H](O)[C@H]1C(=O)N2C(C(=O)O)=C(S[C@@H]3CN[C@H](C(=O)N(C)C)C3)[C@H](C)[C@H]12` has an MIC of under 0.5 mg/L (broth microdilution; ATCC 43816 acrAB knockout).
The MIC of `Cc1c(CN(C)C(=O)/C=C/c2cnc3c(c2)CC(NC(=O)OC(C)(C)C)C(=O)N3)oc2ccccc12` (stereo not drawn) is reported as over 32 mg/L (broth microdilution; AR-0066).
For `CC(C)(O/N=C(\C(=O)N[C@@H]1C(=O)N2C(C(=O)[O-])=C(C[n+]3ccccc3)CS[C@H]12)c1csc(N)n1)C(=O)O`, the MIC was 512 mg/L (broth microdilution; NCTC 13438; 24 h, ambient air).
`O=C(O)c1ccc(NCc2cccc(O)c2)cc1` has an MIC of 64 mg/L (broth microdilution).
With `CN(C)[C@@H]1C(O)=C(C(N)=O)C(=O)[C@@]2(O)C(O)=C3C(=O)c4c(O)cccc4[C@@](C)(O)[C@H]3C[C@@H]12` the MIC was 4 mg/L (broth microdilution; NCTC 13438; 24 h, 5% CO2).
With `N=C(N)c1ccc(OCCC(CCOc2ccc(C(=N)N)cc2)c2ccccc2)cc1` (stereo not drawn) the MIC was over 200 mg/L (ATCC 13883; compound alone).

A few entries again:
With `c1ccc2[nH]c(CNCC34CC5CC(CC(C5)C3)C4)nc2c1` the MIC was over 128 mg/L (ATCC 700603).
